Experimental data from different studies.
Lines come from different studies, so protocols differ. Several values in a cell are separate wells, animals, samples, runs or records. Numbers after ± are the reported error.

SMILES	target or system	assay	system	setting	how to read	quantity	value
Cn1cnc(Cn2c(=O)[nH]/c(=N\c3cc4cn(C)nc4cc3Cl)n(Cc3cc(F)c(F)cc3F)c2=O)n1	–	–	human, severe renal impairment	oral, 375 mg, decreased GFR TEAE, severe severity	–	patients with adverse event	0%
CNC(=O)[C@@H](NC(=O)[C@H](CC(C)C)[C@H](O)C(=O)NO)C(C)(C)C	Daboia russelii venom proteases (SVMP)	protease activity, inhibitor	MH population	0.01 µM, with: azocasein substrate	reference: venom alone	remaining activity	96.6% and 90.1% and 92%
C=C(C)[C@]12C[C@@H](C)[C@@]34O[C@](/C=C/C=C/CCCCCCCCC)(O[C@@H]1[C@@H]3[C@@H]1O[C@]1(CO)[C@@H](O)[C@]1(O)C(=O)C(C)=C[C@H]14)O2	MT4	cell growth or viability, ATP luminescence	–	–	–	IC50	9.4 µM
CC[C@H](C)[C@H](NC(=O)[C@H](CO)NC(=O)[C@@H]1CCCN1C(=O)[C@H](CO)NC(=O)[C@H](CCSC)NC(=O)CNC(=O)CNC(=O)CNC(=O)[C@H](CCCCN)NC(=O)[C@H](CC(C)C)NC(=O)[C@H](CCCCN)NC(=O)[C@H](CC(C)C)NC(=O)[C@H](CCCCN)NC(=O)[C@H](CC(C)C)NC(=O)[C@H](CC(C)C)NC(=O)[C@H](CC(C)C)NC(=O)CNC(=O)[C@H](CC(C)C)NC(=O)[C@H](CC(C)C)NC(=O)[C@H](CCCCN)NC(=O)[C@@H](N)CCCCN)C(=O)N[C@@H](CC(C)C)C(=O)N[C@@H](CCCCN)C(=O)N[C@@H](Cc1c[nH]cn1)C(=O)N[C@@H](Cc1c[nH]c2ccccc12)C(=O)N[C@@H](CO)C(=O)N[C@@H](CCCNC(=N)N)C(=O)N[C@@H](CCC(N)=O)C(=O)O	HEK-293T	cell death	–	24 h, 10% cell death	–	lowest cytotoxic concentration	256 µg/mL
CO[C@H]1/C=C\C=C(/C)C(=O)NC2=CC(=O)C(NCCN(C)C)=C(C[C@@H](C)C[C@H](OC)[C@H](O)[C@@H](C)/C=C(\C)[C@@H]1OC(N)=O)C2=O	TREx BCBL1-Rta	MTS	–	–	–	CC50	4.3 ± 0.9 µM
CC[C@H](C)[C@H](NC(=O)[C@H](CC(C)C)NC(=O)[C@H](Cc1c[nH]c2ccccc12)NC(=O)[C@H](CCC(N)=O)NC(=O)[C@@H](NC(=O)[C@H](Cc1ccccc1)NC(=O)[C@H](C)NC(=O)[C@H](CCCCNC(=O)COCCOCCNC(=O)COCCOCCNC(=O)CC[C@H](NC(=O)CCCCCCCCCCCCCCCCCCC(=O)O)C(=O)O)NC(=O)[C@H](CCC(N)=O)NC(=O)[C@H](C)NC(=O)[C@@H](NC(=O)[C@H](CCCCN)NC(=O)[C@H](CC(=O)O)NC(=O)[C@H](CC(C)C)NC(=O)C(C)(C)NC(=O)[C@@H](NC(=O)[C@H](CO)NC(=O)[C@H](Cc1ccc(O)cc1)NC(=O)[C@H](CC(=O)O)NC(=O)[C@H](CO)NC(=O)[C@@H](NC(=O)[C@H](Cc1ccccc1)NC(=O)[C@@H](NC(=O)CNC(=O)[C@H](CCC(=O)O)NC(=O)C(C)(C)NC(=O)[C@@H](N)Cc1ccc(O)cc1)[C@@H](C)O)[C@@H](C)O)[C@@H](C)CC)[C@@H](C)CC)C(C)C)C(=O)N[C@@H](C)C(=O)NCC(=O)NCC(=O)N1CCC[C@H]1C(=O)N[C@@H](CO)C(=O)N[C@@H](CO)C(=O)NCC(=O)N[C@@H](C)C(=O)N1CCC[C@H]1C(=O)N1CCC[C@H]1C(=O)N1CCC[C@H]1C(=O)N[C@@H](CO)C(N)=O	–	refers to: treatment-emergent upper respiratory tract infection	healthy subjects	0.5 mg, multiple ascending dose	–	subjects with adverse event	16.7%
C=C(C)[C@]12C[C@@H](C)[C@@]34O[C@](c5ccccc5)(O[C@@H]1[C@@H]3[C@@H]1O[C@]1(CO)[C@@H](O)[C@]1(O)C(=O)C(C)=C[C@H]14)O2	MT-4	cell viability	–	–	–	IC50	19.7 ± 1.6 µM
C[C@H]1CCCC(=O)CCC/C=C/c2cc(O)cc(O)c2C(=O)O1	BeWo	–	–	24 h, vehicle co-incubation	–	CC50	183 ± 3.7 µM
C[C@H](NP(=O)(OC[C@@]1(F)O[C@@H](n2ccc(N)nc2=O)C(F)(F)[C@@H]1O)Oc1ccccc1)C(=O)OCc1ccccc1 (stereo partly drawn)	HEL embryonic lung fibroblasts	cell morphology, microscopy	–	–	–	minimum cytotoxic concentration	> 100 µM
CC[C@H](C)[C@H](NC(=O)[C@H](CO)NC(=O)[C@@H]1CCCN1C(=O)[C@H](CO)NC(=O)[C@@H](N)CCSC)C(=O)N[C@@H](CC(C)C)C(=O)N[C@@H](CCCCN)C(=O)N[C@@H](Cc1c[nH]cn1)C(=O)N[C@@H](Cc1c[nH]c2ccccc12)C(=O)N[C@@H](CO)C(=O)N[C@@H](CCCNC(=N)N)C(=O)N[C@@H](CCC(N)=O)C(=O)NCC(=O)NCC(=O)NCC(=O)N[C@@H](CCCCN)C(=O)N[C@@H](CCCCN)C(=O)N[C@@H](CC(C)C)C(=O)N[C@@H](CC(C)C)C(=O)NCC(=O)N[C@@H](CC(C)C)C(=O)N[C@@H](CC(C)C)C(=O)N[C@@H](CC(C)C)C(=O)N[C@@H](CCCCN)C(=O)N[C@@H](CC(C)C)C(=O)N[C@@H](CCCCN)C(=O)N[C@@H](CC(C)C)C(=O)N[C@@H](CCCCN)C(=O)O	HEK-293T	cell death	–	24 h, 10% cell death	–	lowest cytotoxic concentration	256 µg/mL
Nc1ncnc2c([C@@H]3N[C@H](CO)[C@@H](O)[C@H]3O)c[nH]c12	Marburg virus	viral replication	HeLa, Angola	3.1 µM	–	inhibition	34%
CC(C)(C)[C@H](NC(=O)C(F)(F)F)C(=O)N1C[C@H]2[C@@H]([C@H]1C(=O)N[C@H](C#N)C[C@@H]1CCNC1=O)C2(C)C	RD	cytotoxicity	–	–	–	CC50	> 100 µM

Some of these lines once more:
SMILES	target or system	assay	system	setting	how to read	quantity	value
CC[C@H](C)[C@H](NC(=O)[C@H](CO)NC(=O)[C@@H]1CCCN1C(=O)[C@H](CO)NC(=O)[C@H](CCSC)NC(=O)CNC(=O)CNC(=O)CNC(=O)[C@H](CCCCN)NC(=O)[C@H](CC(C)C)NC(=O)[C@H](CCCCN)NC(=O)[C@H](CC(C)C)NC(=O)[C@H](CCCCN)NC(=O)[C@H](CC(C)C)NC(=O)[C@H](CC(C)C)NC(=O)[C@H](CC(C)C)NC(=O)CNC(=O)[C@H](CC(C)C)NC(=O)[C@H](CC(C)C)NC(=O)[C@H](CCCCN)NC(=O)[C@@H](N)CCCCN)C(=O)N[C@@H](CC(C)C)C(=O)N[C@@H](CCCCN)C(=O)N[C@@H](Cc1c[nH]cn1)C(=O)N[C@@H](Cc1c[nH]c2ccccc12)C(=O)N[C@@H](CO)C(=O)N[C@@H](CCCNC(=N)N)C(=O)N[C@@H](CCC(N)=O)C(=O)O	HEK-293T	cell death	–	24 h, 10% cell death	–	lowest cytotoxic concentration	256 µg/mL
CO[C@H]1/C=C\C=C(/C)C(=O)NC2=CC(=O)C(NCCN(C)C)=C(C[C@@H](C)C[C@H](OC)[C@H](O)[C@@H](C)/C=C(\C)[C@@H]1OC(N)=O)C2=O	TREx BCBL1-Rta	MTS	–	–	–	CC50	4.3 ± 0.9 µM
